Results from different studies.
Each line is one published result; not all experiments were run side by side. Numbers after ± are the reported error.
Organism: Escherichia coli

Substance | test | system | conditions | MIC
CC[C@H](C)[C@H](NC(=O)[C@H](Cc1ccccc1)NC(=O)CN)C(=O)N[C@@H](CCCCN)C(=O)N[C@H](C(=O)N[C@H](C(=O)N[C@@H](CCCNC(=N)N)C(=O)N[C@@H](CCCCN)C(=O)N[C@@H](CC(C)C)C(=O)N[C@@H](CC(C)C)C(=O)N[C@@H](CCCNC(=N)N)C(=O)N[C@@H](CC(C)C)C(=O)N[C@@H](Cc1ccccc1)C(N)=O)C(C)C)[C@@H](C)CC | – | ATCC 25922 | 1 h, 37 °C, non-dividing cells in PBS | 1.56 µg/mL
CC[C@H](C)[C@H](NC(=O)[C@@H]1CCCN1C(=O)[C@H](CCCCN)NC(=O)[C@@H]1CCCN1C(=O)[C@@H]1CCCN1C(=O)[C@@H](NC(=O)[C@@H]1CCCN1C(=O)[C@H](CCCNC(=N)N)NC(=O)[C@@H]1CCCN1C(=O)[C@H](CCCNC(=N)N)NC(=O)[C@H](Cc1ccc(O)cc1)NC(=O)[C@H](CO)NC(=O)CNC(=O)[C@H](CCCCN)NC(=O)[C@H](CC(=O)O)NC(=O)[C@@H](N)C(C)C)[C@@H](C)O)C(=O)N[C@@H](Cc1ccc(O)cc1)C(=O)N[C@@H](CC(N)=O)C(=O)N[C@@H](CCCNC(=N)N)C(=O)N[C@@H](CC(N)=O)C(=O)O | broth microdilution | BW25113 parental, Mueller-Hinton broth | 18 h, 37 °C | 0.037 ± 0.008 µM
CC[C@H](C)[C@H](NC(=O)[C@H](Cc1ccc(O)cc1)NC(=O)[C@@H](NC(=O)[C@@H]1CCCN1C(=O)[C@H](CCCNC(=N)N)NC(=O)[C@H](CC(N)=O)NC(=O)[C@H](CC(N)=O)NC(=O)CN)C(C)C)C(=O)N1CCC[C@H]1C(=O)N[C@@H](CCC(N)=O)C(=O)N1CCC[C@H]1C(=O)N[C@@H](CCCNC(=N)N)C(=O)N1CCC[C@H]1C(=O)N1CCC[C@H]1C(=O)N[C@@H](Cc1c[nH]cn1)C(=O)N1CCC[C@H]1C(=O)N[C@@H](CCCNC(=N)N)C(=O)N[C@@H](CC(C)C)C(N)=O | bacterial growth | DH5α | 37 °C | 0.1 µM
EVEPSDTIENVKAKIQ | – | peptide, DH5α, Luria broth | overnight, 37 °C | 10 µM
CC(C)C[C@H](NC(=O)[C@H](CCCNC(=N)N)NC(=O)[C@@H]1CCCN1C(=O)[C@H](CCCNC(=N)N)NC(=O)[C@@H]1CCCN1C(=O)[C@@H]1CCCN1C(=O)[C@H](CCCNC(=N)N)NC(=O)[C@@H]1CCCN1C(=O)[C@H](CCC(N)=O)NC(=O)[C@@H]1CCCN1C(=O)[C@H](CCCNC(=N)N)NC(=O)[C@H](Cc1ccc(O)cc1)NC(=O)[C@@H](NC(=O)[C@@H]1CCCN1C(=O)[C@H](CCCNC(=N)N)NC(=O)[C@H](CC(N)=O)NC(=O)[C@H](CC(N)=O)NC(=O)CN)C(C)C)C(=O)O | broth microdilution | BW25113 parental, Mueller-Hinton broth | 18 h, 37 °C | 0.062 ± 0.027 µM
CC(C)C[C@H](NC(=O)[C@H](C)NC(=O)CNC(=O)[C@@H](NC(=O)[C@@H](NC(=O)[C@H](CCCCN)NC(=O)[C@H](CCCCN)NC(=O)[C@@H](NC(=O)[C@H](CC(C)C)NC(=O)[C@H](CCCCN)NC(=O)[C@H](CC(C)C)NC(=O)[C@H](CC(C)C)NC(=O)[C@@H](N)CCCCN)C(C)C)C(C)C)C(C)C)C(=O)NCC(N)=O | – | ATCC 25922, CAMHB | 18 h, 37 °C | > 22 µM
CC[C@H](C)[C@H](NC(=O)[C@H](C)NC(=O)[C@H](CCC(=O)O)NC(=O)[C@H](Cc1c[nH]cn1)NC(=O)[C@H](CC(C)C)NC(=O)CNC(=O)[C@H](CCC(N)=O)NC(=O)[C@H](Cc1ccccc1)NC(=O)[C@@H](NC(=O)[C@H](CCCCN)NC(=O)[C@H](CCCCN)NC(=O)[C@H](CC(C)C)NC(=O)[C@@H](NC(=O)[C@H](CC(N)=O)NC(=O)[C@H](CC(C)C)NC(=O)CN)[C@@H](C)O)C(C)C)C(=O)N[C@@H](CCCCN)C(=O)N[C@@H](CC(C)C)C(=O)N[C@H](C(=O)N[C@@H](CC(N)=O)C(=O)N[C@@H](CC(N)=O)C(=O)N[C@@H](Cc1c[nH]cn1)C(=O)N[C@H](C(=O)N[C@@H](CCC(N)=O)C(=O)O)C(C)C)[C@@H](C)CC | broth microdilution | K12 | 37 °C | 100 µM
CC[C@H](C)[C@H](N)C(=O)N[C@@H](CC(C)C)C(=O)NCC(=O)N1CCC[C@H]1C(=O)N[C@H](C(=O)N[C@@H](CC(C)C)C(=O)NCC(=O)N[C@@H](CC(C)C)C(=O)N[C@H](C(=O)N[C@@H](CO)C(=O)N[C@@H](CC(=O)O)C(=O)N[C@H](C(=O)N[C@@H](CC(C)C)C(=O)N[C@@H](CC(=O)O)C(=O)N[C@@H](CC(=O)O)C(=O)N[C@H](C(=O)N[C@@H](CC(C)C)C(=O)NCC(=O)N[C@H](C(=O)N[C@@H](CC(C)C)C(=O)O)[C@@H](C)CC)C(C)C)[C@@H](C)O)C(C)C)C(C)C | – | ATCC 25922 | 24 h, 37 °C | 90 µM
CC(C)C[C@H](NC(=O)[C@H](CCCNC(=N)N)NC(=O)[C@H](CC(C)C)NC(=O)[C@@H](NC(=O)[C@H](CC(C)C)NC(=O)[C@H](Cc1c[nH]cn1)NC(=O)[C@H](C)NC(=O)[C@@H](NC(=O)[C@@H](N)CO)[C@@H](C)O)C(C)C)C(=O)N[C@@H](CCCNC(=N)N)C(=O)NCC(=O)NCC(=O)O | – | DH5α | 37 °C, ≥90% viability decrease | > 100 µM
CC[C@H](C)[C@H](N)C(=O)N[C@H](C(=O)N[C@@H](CCCCN)C(=O)N[C@@H](CCCNC(=N)N)C(=O)N[C@H](C(=O)N[C@@H](CC(C)C)C(=O)N[C@H](C(=O)N[C@@H](CCC(N)=O)C(=O)N[C@@H](CC(C)C)C(=O)N[C@@H](CCCCN)C(=O)N[C@@H](CCCCN)C(=O)N[C@@H](CC(C)C)C(=O)N[C@@H](CC(C)C)C(N)=O)[C@@H](C)CC)[C@@H](C)CC)[C@@H](C)CC | broth microdilution | ATCC 25922, LB medium | 16 to 20 h, 37 °C | 25 to 50 µg/mL
CC[C@H](C)[C@H](NC(=O)[C@@H]1CCCN1C(=O)[C@H](CCCCN)NC(=O)[C@@H]1CCCN1C(=O)[C@@H]1CCCN1C(=O)[C@@H](NC(=O)[C@@H]1CCCN1C(=O)[C@H](CCCNC(=N)N)NC(=O)[C@@H]1CCCN1C(=O)[C@H](CCCCN)NC(=O)[C@H](Cc1ccc(O)cc1)NC(=O)[C@H](CO)NC(=O)CNC(=O)[C@H](CCCCN)NC(=O)[C@H](CC(=O)O)NC(=O)[C@@H](N)C(C)C)[C@@H](C)O)C(=O)N[C@@H](Cc1ccc(O)cc1)C(=O)N[C@@H](CC(N)=O)C(=O)N[C@@H](CCCNC(=N)N)C(=O)N[C@@H](CC(N)=O)C(=O)O | broth microdilution | BW25113 parental, Mueller-Hinton broth | 18 h, 37 °C | 0.075 ± 0.018 µM
CC[C@H](C)[C@H](NC(=O)[C@H](CCCNC(=N)N)NC(=O)[C@@H](N)CCCNC(=N)N)C(=O)N[C@@H](CCCNC(=N)N)C(=O)N[C@@H](Cc1ccccc1)C(=O)N[C@@H](CCCNC(=N)N)C(=O)N1CCC[C@H]1C(=O)N1CCC[C@H]1C(=O)N[C@@H](Cc1ccc(O)cc1)C(=O)N[C@@H](CC(C)C)C(=O)N1CCC[C@H]1C(=O)N[C@@H](CCCNC(=N)N)C(=O)N1CCC[C@H]1C(=O)NCC(=O)N[C@@H](CCCNC(=N)N)C(=O)N[C@@H](CCCNC(=N)N)C(N)=O | broth microdilution | BW25113 wild type, Mueller-Hinton broth | overnight, 37 °C | 4 µM
CC[C@H](C)[C@H](NC(=O)[C@H](CCCNC(=N)N)NC(=O)[C@@H](N)CCCNC(=N)N)C(=O)N[C@@H](CCCCN)C(=O)N1CCC[C@H]1C(=O)N[C@@H](CCCNC(=N)N)C(=O)N1CCC[C@H]1C(=O)N1CCC[C@H]1C(=O)N[C@@H](CCCNC(=N)N)C(=O)N[C@@H](CC(C)C)C(=O)N1CCC[C@H]1C(=O)N[C@@H](CCCNC(=N)N)C(=O)N1CCC[C@H]1C(=O)N[C@@H](CCCNC(=N)N)C(=O)N1CCC[C@H]1C(=O)N[C@@H](CCCCN)C(=O)O | – | JW0368 ΔsbmA | 18 h, 37 °C, 12.5% Mueller-Hinton broth | 0.06 ± 0.014 µM
CC[C@H](C)[C@H](NC(=O)[C@H](CO)NC(=O)[C@H](CC(C)C)NC(=O)[C@H](Cc1ccccc1)NC(=O)CN)C(=O)N[C@@H](CC(C)C)C(=O)N[C@@H](CCCCN)C(=O)N[C@@H](CCCCN)C(=O)N[C@H](C(=O)N[C@@H](CC(C)C)C(=O)N1CCC[C@H]1C(=O)N[C@@H](CCCCN)C(=O)N[C@H](C(=O)N[C@@H](CCSC)C(=O)N[C@@H](C)C(=O)N[C@@H](Cc1c[nH]cn1)C(=O)N[C@@H](CCSC)C(=O)N[C@@H](CCCCN)C(N)=O)C(C)C)C(C)C | broth microdilution | K12 | 37 °C | 12.5 to 25 µM
CC(C)C[C@H](NC(=O)[C@H](CCCCN)NC(=O)[C@H](Cc1c[nH]c2ccccc12)NC(=O)[C@H](CCCCN)NC(=O)[C@H](CC(C)C)NC(=O)[C@H](Cc1c[nH]c2ccccc12)NC(=O)[C@H](CC(C)C)NC(=O)[C@H](CCCCN)NC(=O)[C@H](CC(C)C)NC(=O)[C@H](CCCCN)NC(=O)[C@H](CCCCN)NC(=O)[C@@H](N)Cc1c[nH]c2ccccc12)C(=O)N[C@@H](Cc1c[nH]c2ccccc12)C(N)=O | broth microdilution | ATCC 25922, LB medium | 16 to 20 h, 37 °C | 100 µg/mL
CC[C@H](C)[C@H](NC(=O)[C@H](Cc1ccc(O)cc1)NC(=O)[C@@H](NC(=O)[C@@H]1CCCN1C(=O)[C@H](CCCNC(=N)N)NC(=O)[C@H](CC(N)=O)NC(=O)[C@H](CC(N)=O)NC(=O)CN)C(C)C)C(=O)N1CCC[C@H]1C(=O)N[C@@H](CCC(N)=O)C(=O)N1CCC[C@H]1C(=O)N[C@@H](CCCNC(=N)N)C(=O)N1CCC[C@H]1C(=O)N1CCC[C@H]1C(=O)N[C@@H](Cc1c[nH]cn1)C(=O)N1CCC[C@H]1C(=O)N[C@@H](CCCNC(=N)N)C(=O)N[C@@H](CC(C)C)C(=O)O | broth microdilution | BW25113, 20% M9 medium | – | > 0.384 µM
CC[C@H](C)[C@H](NC(=O)[C@H](CCCNC(=N)N)NC(=O)[C@H](CCCCN)NC(=O)[C@H](CC(C)C)NC(=O)[C@H](Cc1ccccc1)NC(=O)[C@H](CCCNC(=N)N)NC(=O)[C@H](C)NC(=O)[C@@H](N)C(C)C)C(=O)N[C@H](C(=O)N[C@@H](CCCCN)C(=O)N[C@@H](C)C(=O)N[C@@H](CC(C)C)C(=O)N[C@@H](Cc1ccccc1)C(N)=O)[C@@H](C)CC | broth microdilution | ATCC 25922, LB medium | 16 to 20 h, 37 °C | 6.25 µg/mL
CC[C@H](C)[C@H](NC(=O)[C@H](CC(C)C)NC(=O)[C@@H]1CCCN1C(=O)[C@H](Cc1ccccc1)NC(=O)[C@H](CC(C)C)NC(=O)[C@@H](N)Cc1ccccc1)C(=O)N[C@H](C(=O)N[C@@H](CO)C(=O)N[C@@H](Cc1ccccc1)C(=O)N[C@@H](CC(C)C)C(=O)N[C@@H](CO)C(=O)N[C@@H](CCCCN)C(=O)N[C@H](C(=O)N[C@@H](CC(C)C)C(=O)O)C(C)C)[C@@H](C)O | broth microdilution | K12 | 37 °C | > 100 µM

A few entries again:
Substance | test | system | conditions | MIC
CC[C@H](C)[C@H](NC(=O)[C@H](CCCNC(=N)N)NC(=O)[C@H](CCCCN)NC(=O)[C@H](CC(C)C)NC(=O)[C@H](Cc1ccccc1)NC(=O)[C@H](CCCNC(=N)N)NC(=O)[C@H](C)NC(=O)[C@@H](N)C(C)C)C(=O)N[C@H](C(=O)N[C@@H](CCCCN)C(=O)N[C@@H](C)C(=O)N[C@@H](CC(C)C)C(=O)N[C@@H](Cc1ccccc1)C(N)=O)[C@@H](C)CC | broth microdilution | ATCC 25922, LB medium | 16 to 20 h, 37 °C | 6.25 µg/mL
